Results from different studies.
Each line is one published result; not all experiments were run side by side. ± marks the error that the study gave.
Action: inhibitor
gag-pol integrase: Gag-Pol polyprotein, integrase (gag-pol, Human immunodeficiency virus type 1 group M subtype B, UniProt P04585)
F fusion protein: Fusion glycoprotein F0, fusion protein (F, Parainfluenza virus 5, UniProt P04849)
Sequence of UniProt P16390 (whole entry, looked up): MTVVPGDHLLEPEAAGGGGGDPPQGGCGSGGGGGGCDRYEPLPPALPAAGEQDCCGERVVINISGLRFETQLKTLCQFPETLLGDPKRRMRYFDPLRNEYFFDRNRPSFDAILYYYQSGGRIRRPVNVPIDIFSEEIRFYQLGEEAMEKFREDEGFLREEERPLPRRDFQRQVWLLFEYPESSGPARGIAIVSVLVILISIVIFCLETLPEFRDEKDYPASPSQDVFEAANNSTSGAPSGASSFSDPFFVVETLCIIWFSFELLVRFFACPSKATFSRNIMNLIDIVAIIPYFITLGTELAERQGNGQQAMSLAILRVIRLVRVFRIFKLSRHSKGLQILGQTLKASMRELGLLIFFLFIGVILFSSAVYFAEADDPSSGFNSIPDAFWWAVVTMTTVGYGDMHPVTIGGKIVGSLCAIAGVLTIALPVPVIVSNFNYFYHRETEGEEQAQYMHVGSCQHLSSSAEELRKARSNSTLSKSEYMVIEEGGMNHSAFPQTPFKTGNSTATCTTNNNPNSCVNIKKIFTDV

The IC50 of `O=C(COc1ccc2c(c1O)C(=O)c1ccccc1C2=O)c1ccccc1` is reported as greater than 100000 nM (Gag-Pol polyprotein, RT RNase H activity (gag-pol, Human immunodeficiency virus 1, UniProt P03366, K702N); enzyme activity).
`CC[C@H](C)[C@@H]1NC(=O)[C@@H](NC(=O)[C@H](CO)NC(=O)[C@@H](N)CCCNC(=N)N)CSSC[C@@H](C(=O)O)NC(=O)[C@H]([C@@H](C)O)NC(=O)CNC(=O)[C@@H]2CSSC[C@@H]3NC(=O)[C@H](CCC(N)=O)NC(=O)[C@H](Cc4ccccc4)NC(=O)[C@H](C)NC(=O)[C@H]([C@@H](C)O)NC(=O)[C@H](CSSC[C@H](NC(=O)[C@H](Cc4ccccc4)NC(=O)[C@H](CO)NC(=O)[C@H](CC(C)C)NC(=O)[C@H](CCCNC(=N)N)NC(=O)[C@H](Cc4ccc(O)cc4)NC(=O)[C@H](CCCCN)NC(=O)[C@H](CCSC)NC(=O)[C@H](CO)NC(=O)[C@H](Cc4cnc[nH]4)NC(=O)[C@H](CCCCN)NC3=O)C(=O)N[C@@H](CCCNC(=N)N)C(=O)N[C@@H](CCCCN)C(=O)N[C@@H]([C@@H](C)O)C(=O)N2)NC(=O)[C@H](CCCNC(=N)N)NC(=O)[C@H](CO)NC(=O)[C@H](CCCCN)NC(=O)[C@@H]2CCCN2C(=O)[C@H]([C@@H](C)CC)NC(=O)[C@H]([C@@H](C)O)NC(=O)[C@H](CC(=O)O)NC1=O` gave an IC50 of 0.009 nM (Kcna3 (Mus musculus, UniProt P16390); ion current, patch clamp).
The IC50 of `CC[C@H](C)[C@H](NC(=O)[C@H](C)NC(=O)[C@H](CCC(=O)O)NC(C)=O)C(=O)N[C@H](C(=O)N[C@H]1CCCC=CCCC[C@@H](C(=O)N[C@@H](CC(C)C)C(=O)N[C@@H](CC(C)C)C(=O)N[C@@H](Cc2ccccc2)C(=O)N[C@H](C(=O)N[C@@H](Cc2c[nH]cn2)C(=O)N[C@@H](Cc2ccccc2)C(=O)N[C@@H](CCCNC(=N)N)C(=O)N[C@H](C(=O)NCC(N)=O)[C@@H](C)CC)[C@@H](C)CC)NC(=O)[C@H](CCC(N)=O)NC(=O)[C@H](CC(C)C)NC(=O)[C@H]([C@@H](C)CC)NC1=O)[C@@H](C)CC` is reported as 54400 ± 9600 nM (gag-pol integrase; strand transfer; HIV-1).
For `CC[C@H](C)[C@H](N)C(=O)N[C@@H](CC(N)=O)C(=O)N[C@@H](CC(N)=O)C(=O)N[C@H](C(=O)N1C[C@@H](n2cc([C]34[CH]5[CH]6[CH]7[CH]3[Fe]6754389%10[CH]4[CH]3[CH]8[CH]9[CH]4%10)nn2)C[C@H]1C(=O)N[C@@H](Cc1ccc(O)cc1)C(N)=O)[C@@H](C)CC` (stereo partly shown), the IC50 was greater than 50000 nM (Envelope glycoprotein gp160, gp120 (env, Human immunodeficiency virus type 1 group M subtype B, UniProt P35961, W111A); binding to soluble CD4, competition SPR; gp120 W112A mutant).
For `O=C1c2c(ccc(O)c2O)CN1Cc1ccc(F)c(Cl)c1`, the IC50 was 2500 ± 300 nM (Gag-Pol polyprotein, integrase (gag-pol, Human immunodeficiency virus 1, UniProt P12497, Y1290R); enzyme activity).
`CC[C@H](C)[C@H](NC(=O)[C@H](C)NC(=O)[C@H](CO)NC(=O)[C@H](CC(C)C)NC(=O)[C@H](Cc1ccc(O)cc1)NC(=O)[C@@H](NC(=O)[C@H](CC(=O)O)NC(=O)[C@H](CO)NC(=O)[C@H](CCC(N)=O)NC(=O)[C@H](C)NC(=O)[C@H](CC(C)C)NC(=O)[C@H](Cc1c[nH]cn1)NC(=O)[C@H](CCC(N)=O)NC(=O)[C@H](CC(C)C)NC(=O)[C@H](C)NC(=O)[C@H](CC(=O)O)NC(=O)[C@H](CO)NC(=O)[C@H](CC(C)C)NC(=O)[C@H](CO)NC(=O)[C@H](CCCCN)NC(=O)[C@H](CC(N)=O)NC(=O)[C@@H](NC(=O)[C@H](C)NC(=O)[C@H](C)NC(=O)[C@H](CC(C)C)NC(=O)[C@H](CC(N)=O)NC(=O)[C@H](CCC(N)=O)NC(=O)[C@H](CO)NC(=O)[C@@H](NC(=O)[C@H](CC(=O)O)NC(=O)[C@H](CC(C)C)NC(=O)[C@@H]1CCCN1C(=O)[C@H](CC(=O)O)NC(=O)[C@@H](NC(=O)[C@H](CO)NC(=O)[C@H](CC(C)C)NC(=O)[C@@H](NC(=O)[C@H](CCC(N)=O)NC(=O)[C@H](CO)NC(=O)[C@H](CO)NC(=O)[C@H](CCC(=O)O)NC(=O)[C@H](CC(C)C)NC(=O)[C@@H](N)CCCCN)[C@@H](C)CC)[C@@H](C)CC)[C@@H](C)CC)C(C)C)[C@@H](C)O)C(=O)O` gave an IC50 of 38 ± 4 nM (F fusion protein; cell-cell fusion, luciferase reporter; Vero plus BSR-T7 cells; 6 h, 37 °C, together with: SV5 F and HN).
With `CC(C)C[C@H](NC(=O)[C@H](Cc1ccccc1)NC(=O)[C@H](Cc1ccc(O)cc1)NC(=O)[C@H](C)NC(=O)[C@@H](N)[C@@H](C)O)C(=O)N[C@@H](CC(C)C)C(=O)N[C@@]1(C)CCCC=CCCC[C@@](C)(C(=O)N[C@@H](Cc2c[nH]c3ccccc23)C(N)=O)NC(=O)CNC(=O)[C@H](C)NC(=O)[C@H](CC(C)C)NC1=O` the IC50 was greater than 100000 nM (gag-pol integrase; integrase strand transfer).
`CC[C@H](C)[C@H](NC(=O)[C@H](C)NC(=O)[C@H](CO)NC(=O)[C@H](CC(C)C)NC(=O)[C@H](Cc1ccc(O)cc1)NC(=O)[C@@H](NC(=O)[C@H](CC(=O)O)NC(=O)[C@H](CO)NC(=O)[C@H](CCC(N)=O)NC(=O)[C@H](C)NC(=O)[C@H](CC(C)C)NC(=O)[C@H](Cc1c[nH]cn1)NC(=O)[C@H](CCC(N)=O)NC(=O)[C@H](CC(C)C)NC(=O)[C@H](C)NC(=O)[C@H](CC(=O)O)NC(=O)[C@H](CO)NC(=O)[C@H](CC(C)C)NC(=O)[C@H](CO)NC(=O)[C@H](CCCCN)NC(=O)[C@H](CC(N)=O)NC(=O)[C@@H](NC(=O)[C@H](C)NC(=O)[C@H](C)NC(=O)[C@H](CC(C)C)NC(=O)[C@H](CC(N)=O)NC(=O)[C@H](CCC(N)=O)NC(=O)[C@H](CO)NC(=O)[C@@H](NC(=O)[C@H](CC(=O)O)NC(=O)[C@H](CC(C)C)NC(=O)[C@@H]1CCCN1C(=O)[C@H](CC(=O)O)NC(=O)[C@@H](NC(=O)[C@H](CO)NC(=O)[C@H](CC(C)C)NC(=O)[C@@H](NC(=O)[C@H](CCC(N)=O)NC(=O)[C@H](CO)NC(=O)[C@H](CO)NC(=O)[C@H](CCC(=O)O)NC(=O)[C@H](CC(C)C)NC(=O)[C@@H](N)CCCCN)[C@@H](C)CC)[C@@H](C)CC)C(C)C)C(C)C)[C@@H](C)O)C(=O)O` gave an IC50 of 58 ± 6 nM (F fusion protein; cell-cell fusion, luciferase reporter; Vero plus BSR-T7 cells; 6 h, 37 °C, together with: SV5 F and HN).
With `CC[C@H](C)[C@H](NC(=O)[C@H](C)NC(=O)[C@H](CCC(=O)O)NC(C)=O)C(=O)N[C@H](C(=O)N[C@@H](CCCNC(=N)N)C(=O)N[C@H](C(=O)N[C@H]1CCCC=CCCC[C@@H](C(=O)N[C@@H](Cc2ccccc2)C(=O)N[C@H](C(=O)N[C@@H](Cc2c[nH]cn2)C(=O)N[C@@H](Cc2ccccc2)C(=O)N[C@@H](CCCNC(=N)N)C(=O)N[C@H](C(=O)NCC(N)=O)[C@@H](C)CC)[C@@H](C)CC)NC(=O)[C@H](CC(C)C)NC(=O)[C@H](CCC(N)=O)NC(=O)[C@H](CCC(N)=O)NC1=O)[C@@H](C)CC)[C@@H](C)CC` the IC50 was 1900 ± 200 nM (gag-pol integrase; strand transfer; HIV-1).
The IC50 of `C[C@H](NC(=O)[C@H](C)NC(=O)[C@@H]1CCCN1C(=O)[C@@H](N)Cc1ccc(O)cc1)C(=O)N[C@@H](CO)C(=O)N[C@@H](Cc1ccc(O)cc1)C(=O)N[C@@H](CCCNC(=N)N)C(=O)O` is reported as 62 nM (Protein Rev (Human immunodeficiency virus type 1 group M subtype B, UniProt P04618); Rev-RRE binding, gel shift; HIV).

Repeated from above:
`CC[C@H](C)[C@H](NC(=O)[C@H](C)NC(=O)[C@H](CO)NC(=O)[C@H](CC(C)C)NC(=O)[C@H](Cc1ccc(O)cc1)NC(=O)[C@@H](NC(=O)[C@H](CC(=O)O)NC(=O)[C@H](CO)NC(=O)[C@H](CCC(N)=O)NC(=O)[C@H](C)NC(=O)[C@H](CC(C)C)NC(=O)[C@H](Cc1c[nH]cn1)NC(=O)[C@H](CCC(N)=O)NC(=O)[C@H](CC(C)C)NC(=O)[C@H](C)NC(=O)[C@H](CC(=O)O)NC(=O)[C@H](CO)NC(=O)[C@H](CC(C)C)NC(=O)[C@H](CO)NC(=O)[C@H](CCCCN)NC(=O)[C@H](CC(N)=O)NC(=O)[C@@H](NC(=O)[C@H](C)NC(=O)[C@H](C)NC(=O)[C@H](CC(C)C)NC(=O)[C@H](CC(N)=O)NC(=O)[C@H](CCC(N)=O)NC(=O)[C@H](CO)NC(=O)[C@@H](NC(=O)[C@H](CC(=O)O)NC(=O)[C@H](CC(C)C)NC(=O)[C@@H]1CCCN1C(=O)[C@H](CC(=O)O)NC(=O)[C@@H](NC(=O)[C@H](CO)NC(=O)[C@H](CC(C)C)NC(=O)[C@@H](NC(=O)[C@H](CCC(N)=O)NC(=O)[C@H](CO)NC(=O)[C@H](CO)NC(=O)[C@H](CCC(=O)O)NC(=O)[C@H](CC(C)C)NC(=O)[C@@H](N)CCCCN)[C@@H](C)CC)[C@@H](C)CC)C(C)C)C(C)C)[C@@H](C)O)C(=O)O` gave an IC50 of 58 ± 6 nM (F fusion protein; cell-cell fusion, luciferase reporter; Vero plus BSR-T7 cells; 6 h, 37 °C, together with: SV5 F and HN).
